{"data": "Published values gathered from unrelated publications", "note": "Parts stem from different laboratories: compare values within a part only."}
{"data": "Sample 1", "target": "RNA binding protein fox-1 homolog 2, RRM domain, GST-SBP tag (RBFOX2, Homo sapiens, UniProt O43251-10, residues 100-194)", "technique": "RNA Bind-n-Seq", "molecule type": "RNA", "matrix": "in vitro", "concentration": "365 nM", "setting": "natural RNA segment, single round, ends assumed", "relative to": "no-protein control", "reading": "higher = stronger binding", "all sequences stand within": "GGGAGUUCUACAGUCCGACGAUC … UGGAAUUCUCGGGUGCCAA", "Construct (chain)": "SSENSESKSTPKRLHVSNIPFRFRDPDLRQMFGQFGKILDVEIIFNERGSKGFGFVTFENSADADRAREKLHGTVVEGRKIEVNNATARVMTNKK"}
{"Oligonucleotide": "AGGUCAGCUGCGAGGGUCACAGAGCGUUCCGGGGGCCAAGGCGCCGGGCCCCGGGGCCAUGCUCUUAUCACCAGCCACCCGUCCUCCCGCCAGAGGGUCCCUGCCCCGAG", "RBNS enrichment (R)": 0.43}
{"Oligonucleotide": "UUUAUGAUCAGGGUGGAAUGUGCCUCCUGAUGUAUGAGCCUCAUUAAUUUCCAUUUUAAGGUGGUGUCUGUGCAGCCGUGUCCCUGGUUCUGGCUGUUUUCUGUCUGGUG", "RBNS enrichment (R)": 0.443}
{"Oligonucleotide": "GACUCCAGCCACCACCCACUGACGUUAUUUUUAUACUAGAUGAAGAGGUCAACAGCAGGCAUGGGGAGCCGAGUCUUCUGUGCUCAGGUCCUCACGCUGCAGACGCCCCC", "RBNS enrichment (R)": 0.29}
{"Oligonucleotide": "UUCAUGCCGGUAGAGGCUCAUUAAGUGAGGUCCUGGGCACCCCCCAAACAGGAAGUGUUUUCAGGCCCUUACAUGCUUAUCCUUAAGGUGAGUAGGUAUCUCAGCAGCAC", "RBNS enrichment (R)": 0.226}
{"Oligonucleotide": "ACACCCCUGAGCAGAGUUAGGGAGGAAUUCUACUUCCCAUAAAAGGACCUCUCCUGAGAGGCAAAACCUGUUGCCUCCACCACGGCUUCCCUCUUGGCUCAUUCCAAGCU", "RBNS enrichment (R)": 0.302}
{"Oligonucleotide": "UCUUAUCUUGAGAGUUAGGAGCACCAUAGGAUAUGAUGGUCUAUGUGCUGCCAACAGGCUCCCCGAAGCGAGUCACAAACACAUACAGCAACACUACUUGAGAAUGGUAC", "RBNS enrichment (R)": 0.752}
{"Oligonucleotide": "CCCAGGUUCUAAACUGAAACUGACUAGAGAUGAAUCCAGCGCCUGACAGAAUGUCAUUCUCCUUCAGUUGCUGCCAUUUUAUCUCCUCCUGAAAGCUAAAGGCUCACCAC", "RBNS enrichment (R)": 0.437}
{"Oligonucleotide": "AUGUCUUCCAUGGAGCCUCAGGUGCUCCCCCUCUCACCUGGCAGCCCCUUCAGCUGCUAGUGAUAUCACUUGUUGGACAUUUUUCCAAUAAAGGUUCUUGGACAAACUGG", "RBNS enrichment (R)": 0.266}
{"Oligonucleotide": "AUUUCACCCAGUGUCUUCUGCCUCCCUCUGCGUUGGUAUCUGCUACAUCCCAGGCCACCACCUCCGAGGAUGAAAAGAUGGCUGCCUGCAGCUUCCACGGAAUCCCUCCC", "RBNS enrichment (R)": 0.374}
{"Oligonucleotide": "UGUUAACCUGGAGGAAGUCUCUGGUAUGGAGUUCUGAGAGCUUAAGAGCUAAACAUGAGUUUAGACACACAAGAUUCUAAAAUGCAAAUGUUUAUUUUGAAGCAGGCAUU", "RBNS enrichment (R)": 0.336}
{"Oligonucleotide": "UUGACGCAUCAUCCUGUGAUGUUGAAAUGUCAAUUGCAGGAUGCUGAUGUUGUGCACGUCAAUCACCGGGCACUUGCAUACUCUUAGAAACAGUUCGACUUCGGUUACUG", "RBNS enrichment (R)": 1.19}
{"Oligonucleotide": "GGAGGAUGUGCUGAAGAUGGUCUGGUCCUAACUGCCAGACACAAUGUCCGUGACAUUAAAGGCUCCACAUGAUUGACCACAGCAUGGGAGAGCGGUGUUCUUCACUCGAC", "RBNS enrichment (R)": 1.57}
{"data": "Sample 2", "target": "Histone acetyltransferase KAT6A, winged helix 2, GST fusion (KAT6A, Homo sapiens, UniProt Q92794, residues 85-181)", "technique": "protein binding microarray", "molecule type": "double-stranded DNA, one strand shown", "matrix": "in vitro", "concentration": "not given", "setting": "8-mer, flanks averaged, mean of 2 arrays, mostly near background", "relative to": "not given", "reading": "higher = stronger binding", "Target sequence (chain)": "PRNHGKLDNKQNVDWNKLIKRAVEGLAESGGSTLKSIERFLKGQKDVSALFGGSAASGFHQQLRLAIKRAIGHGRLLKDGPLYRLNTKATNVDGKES"}
{"Oligonucleotide": "ACTTGTCG", "E-score": -0.0986}
{"Oligonucleotide": "CAGGCTTA", "E-score": 0.02}
{"Oligonucleotide": "CGACATCC", "E-score": 0.0298}
{"Oligonucleotide": "CAGTGTCG", "E-score": -0.06}
{"Oligonucleotide": "AACGTCAC", "E-score": -0.105}
{"Oligonucleotide": "CTAAGCTC", "E-score": 0.0679}
{"Oligonucleotide": "GTCCAGCA", "E-score": 0.00645}
{"Oligonucleotide": "GCCAACAA", "E-score": 0.0452}
{"Oligonucleotide": "GATAGTAA", "E-score": 0.0657}
{"Oligonucleotide": "AGCGTTTA", "E-score": -0.144}
{"Oligonucleotide": "AATTCCGT", "E-score": -0.0778}
{"Oligonucleotide": "CGTCTGCA", "E-score": 0.0416}
{"Oligonucleotide": "CGCCACTC", "E-score": 0.0563}
{"Oligonucleotide": "GCATTCCA", "E-score": -0.0255}
{"Oligonucleotide": "GCTAGAGA", "E-score": 0.0107}
{"Oligonucleotide": "ATTCGAGC", "E-score": -0.0106}
{"Oligonucleotide": "GTTGTCGA", "E-score": -0.0933}
{"Oligonucleotide": "ACACGTAC", "E-score": -0.226}
{"Oligonucleotide": "GATGCCAA", "E-score": -0.0715}
{"Oligonucleotide": "CATTTAAG", "E-score": -0.0348}
{"Oligonucleotide": "GCAAGGCC", "E-score": 0.0208}
{"Oligonucleotide": "TCCAACCA", "E-score": -0.037}
{"Oligonucleotide": "CACGAATA", "E-score": -0.000425}
{"Oligonucleotide": "ACCCTCAT", "E-score": -0.199}
{"Oligonucleotide": "TCATAAGA", "E-score": -0.0602}
{"data": "Sample 3", "target": "Ras GTPase-activating protein-binding protein 1, C-terminal RGG region (G3BP1, Homo sapiens, UniProt Q13283)", "technique": "RNA Bind-n-Seq", "molecule type": "RNA", "matrix": "in vitro", "concentration": "1 µM", "setting": "whole 134-nt RNA, ends assumed", "together with": "150 mM KCl", "relative to": "input library", "reading": "higher = stronger binding", "all sequences stand within": "GGGAGUUCUACAGUCCGACGAUC … UGGAAUUCUCGGGUGUCAAGG", "chain of UniProt Q13283 (whole entry, looked up)": "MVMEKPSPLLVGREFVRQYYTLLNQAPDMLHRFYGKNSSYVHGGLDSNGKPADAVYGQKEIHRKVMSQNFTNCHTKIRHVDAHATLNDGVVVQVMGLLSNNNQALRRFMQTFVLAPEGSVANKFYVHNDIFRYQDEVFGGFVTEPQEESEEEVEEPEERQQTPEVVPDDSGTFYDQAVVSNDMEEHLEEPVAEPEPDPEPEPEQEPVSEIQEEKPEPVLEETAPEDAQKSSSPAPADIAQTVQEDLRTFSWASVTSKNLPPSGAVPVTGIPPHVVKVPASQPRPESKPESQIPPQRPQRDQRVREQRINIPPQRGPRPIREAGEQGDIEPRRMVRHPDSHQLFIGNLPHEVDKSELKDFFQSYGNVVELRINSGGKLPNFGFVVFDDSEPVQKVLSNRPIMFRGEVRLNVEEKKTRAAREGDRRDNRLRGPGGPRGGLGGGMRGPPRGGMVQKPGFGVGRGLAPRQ"}
{"Oligonucleotide": "GUCCUGUGCUACACAUCGUAUGUACCGAAUCGGGGUUUUUGGUUUUUGGGGUUUUUGGGAAAGUAUUAUGUUACGCCGUUCGGAUCUGCA", "log2 enrichment": -0.953}
{"Oligonucleotide": "GCAGGAAGUAAAAACAAAUGGAAAUGCUUCGGAUAGUGGUAGGGGUGGGGGUUGCUAAGGAAAGGGUGGGAUGGGAGUGGGUAAAGAGUU", "log2 enrichment": 2.01}
{"Oligonucleotide": "CCUCAAGUCCUGUGCUACACAUCGUAUGUACCGAAUCGGGCGGGGCGGGGCGGAAAGUAUUAUGUUACGCCGUUCGGAUCUGCACUUCCA", "log2 enrichment": 0.083}
{"Oligonucleotide": "UGUGCUACACAUCGUAUGUACCGAAUCGGGUUUUUUUGGGGUUUUUUUGGGGUUUUUUUGGGGAAAGUAUUAUGUUACGCCGUUCGGAUC", "log2 enrichment": -0.416}
{"Oligonucleotide": "GCAGGAAGUAAAAACAAAUGGAAAUGCUUCGGAUAGUGGCAGGGGAGGGGGUUGCUAAGGAAAGGGUGGGAUGGGAGUGGGUAAAGAGUU", "log2 enrichment": 1.95}
{"Oligonucleotide": "GUCCUGUGCUACACAUCGUAUGUACCGAAUCGGGUUUUUUGGUUUUUUGGUUUUUUGGGAAAGUAUUAUGUUACGCCGUUCGGAUCUGCA", "log2 enrichment": -1.69}
{"Oligonucleotide": "GGCGGAGCAGCUGAUGGAGGAGUGGAACGAAGACCUAGACGGCAUGGAGGGUUUCGUGCUGGAGGGCAAGAAGUUUGCGCGGCUGCCGGA", "log2 enrichment": -1.38}
{"Oligonucleotide": "AGUCCUGUGCUACACAUCGUAUGUACCGAAUCGGGGAAAAGGGGAAAAGGAAAAGGGAAAGUAUUAUGUUACGCCGUUCGGAUCUGCACU", "log2 enrichment": -1.23}
{"Oligonucleotide": "UCCUGUGCUACACAUCGUAUGUACCGAAUCGGGGAAAAAGGGGAAAAAGGGGAAAAAGGAAAGUAUUAUGUUACGCCGUUCGGAUCUGCA", "log2 enrichment": -1.08}
{"Oligonucleotide": "UCCUGUGCUACACAUCGUAUGUACCGAAUCGGGCCCCCCGGGGCCCCCCGGCCCCCCGGAAAGUAUUAUGUUACGCCGUUCGGAUCUGCA", "log2 enrichment": -0.997}
{"Oligonucleotide": "GUCAAGUGCUUCUGCUCCUGAUGUGGAUGACCCAGAGGCAUUCCCAGCUCUGGCUUAACUGGAUGCCAUAAGACAACCCUGGUUCCUUUG", "log2 enrichment": 0.379}
{"Oligonucleotide": "CUGUGCUACACAUCGUAUGUACCGAAUCGGGGCCCCCCCGGCCCCCCCGGGCCCCCCCGGGAAAGUAUUAUGUUACGCCGUUCGGAUCUG", "log2 enrichment": -1.86}
{"Oligonucleotide": "UCCUGUGCUACACAUCGUAUGUACCGAAUCGGGGAAAAAGGAAAAAGGGGAAAAAGGGGAAAGUAUUAUGUUACGCCGUUCGGAUCUGCA", "log2 enrichment": -0.801}
{"Oligonucleotide": "UGGCCCUGGGGGCAUGCGGGGAGGAAGAGGUGGCCUCAUGGAUCGUGGUGGUCCCGGUGGAAUGUUCAGAGGUGGCCGUGGUGGAGACAG", "log2 enrichment": 2.17}
{"data": "Sample 4", "target": "Interferon regulatory factor 5, full length, phosphomimetic (IRF5, Homo sapiens, UniProt Q13568-2, residues 1-514, S451D/S453D/S456D/S462D)", "technique": "protein-binding microarray", "molecule type": "double-stranded DNA, one strand shown", "matrix": "in vitro", "concentration": "940 nM top", "setting": "60-bp whole probe", "together with": "salmon DNA 0.4 mg/ml", "relative to": "random background probes", "reading": "higher = stronger binding", "all sequences stand within": "GCCTAGCAC … GTCTTGATTCGCTTGACGCTGCTG"}
{"Oligonucleotide": "TTAGGTCTCAGTCTCGATTAGTGCTAG", "fitted relative affinity [z-score]": 3.63}
{"Oligonucleotide": "TTAGATCTAAGTCTCGATTAGTGCTAG", "fitted relative affinity [z-score]": 2.12}
{"Oligonucleotide": "TACTTTCTTTTTTTCTTTTAGTGCTAG", "fitted relative affinity [z-score]": 3.68}
{"Oligonucleotide": "CTTTTTTTCCGAGTGAGTAAGTGCTAG", "fitted relative affinity [z-score]": 0.45}
{"Oligonucleotide": "TTAGGACTGGTTCTCCTTTAGTGCTAG", "fitted relative affinity [z-score]": 0.158}
{"Oligonucleotide": "TAAGATATCAGTCTCGATTAGTGCTAG", "fitted relative affinity [z-score]": 3.23}
{"Oligonucleotide": "GACGAACTTAGTTTCGAGACGTGCTAG", "fitted relative affinity [z-score]": 4.45}
{"Oligonucleotide": "TTCGGTTTCCTACTGCTTTAGTGCTAG", "fitted relative affinity [z-score]": 1.27}
{"Oligonucleotide": "GACGATTTCGGGTTTGGAGACGTGCTA", "fitted relative affinity [z-score]": 0.504}
{"Oligonucleotide": "TAAGATTTCGGGTATCGATTAGTGCTA", "fitted relative affinity [z-score]": 3.61}
{"Oligonucleotide": "TTAGGAATCGGACTGGGTTAGTGCTAG", "fitted relative affinity [z-score]": -0.104}
{"Oligonucleotide": "TCAAATCTCTCATGTTACACTGTGCTA", "fitted relative affinity [z-score]": 1.26}
{"Oligonucleotide": "TTAGATTTCGGGTCTCGATTAGTGCTA", "fitted relative affinity [z-score]": 1.99}
{"Oligonucleotide": "TTAGGACTGGACTATCTGTTAGTGCTA", "fitted relative affinity [z-score]": -0.284}
{"Oligonucleotide": "TAAGGACTGGGACTGGGTTAGTGCTAG", "fitted relative affinity [z-score]": -0.316}
{"Oligonucleotide": "GACGGTATTCTACTGCTGACGTGCTAG", "fitted relative affinity [z-score]": 0.186}
{"Oligonucleotide": "TTAGATCTCAGTTTCGCTTAGTGCTAG", "fitted relative affinity [z-score]": 4.99}
{"Oligonucleotide": "TTAGAACTGGACTTTCGGTTAGTGCTA", "fitted relative affinity [z-score]": 2.55}
{"Oligonucleotide": "TTAGAACTGGGGACCGGATTAGTGCTA", "fitted relative affinity [z-score]": -0.022}
{"Oligonucleotide": "ACTAGATAAGACAAAGTGATGTGCTAG", "fitted relative affinity [z-score]": -0.303}
{"Oligonucleotide": "TTGGATTTCGGGACTGGATTAGTGCTA", "fitted relative affinity [z-score]": 0.643}
{"note": "A few entries again (sample 4):"}
{"Oligonucleotide": "CTTTTTTTCCGAGTGAGTAAGTGCTAG", "fitted relative affinity [z-score]": 0.45}
{"Oligonucleotide": "TTAGGACTGGTTCTCCTTTAGTGCTAG", "fitted relative affinity [z-score]": 0.158}
{"Oligonucleotide": "TAAGATATCAGTCTCGATTAGTGCTAG", "fitted relative affinity [z-score]": 3.23}
{"Oligonucleotide": "GACGAACTTAGTTTCGAGACGTGCTAG", "fitted relative affinity [z-score]": 4.45}
{"Oligonucleotide": "TTCGGTTTCCTACTGCTTTAGTGCTAG", "fitted relative affinity [z-score]": 1.27}
{"Oligonucleotide": "GACGATTTCGGGTTTGGAGACGTGCTA", "fitted relative affinity [z-score]": 0.504}
